Measurements pooled from the literature.
Numbered parts are unrelated; each lists some results of a single study. Substitutions count along the parent as printed.

Sample 1
Target: CCNE1, cyclin fold, Cln2 fusion (human)
Technique: yeast growth competition, sequencing
Matrix: yeast
Setting: strong parent motif
Baseline: not given
Reading: higher = stronger binding
Parent: viral docking peptide; KGVKRKLFAEDSS
`KGVKRKTFAEDSS [L7T]`: “normalised enrichment score” 0.344.
Under “normalised enrichment score”, `KGVKRKLFMEDSS [A9M]` is recorded as 7.63.
Under “normalised enrichment score”, `KGVKRMLFAEDSS [K6M]` is recorded as 7.14.
`KGVKRKLFAEMSS [D11M]`: “normalised enrichment score” 6.74.
For `KGVKRKLEAEDSS [F8E]`, “normalised enrichment score” read 0.521.
For `KGHKRKLFAEDSS [V3H]`, “normalised enrichment score” read 5.44.
For `KGVKRKLWAEDSS [F8W]`, “normalised enrichment score” read 6.66.
`KGVKAKAFAEDSS [R5A L7A]` — result for “normalised enrichment score”: 0.249.
`KGVKRKLFANDSS [E10N]`: “normalised enrichment score” 7.17.
Under “normalised enrichment score”, `KGVKKKLLAEDSS [R5K F8L]` is recorded as 0.533.
Under “normalised enrichment score”, `KGVKNKLFAEDSS [R5N]` is recorded as 0.107.
Under “normalised enrichment score”, `KGVKRKEFAEDSS [L7E]` is recorded as 0.528.
For `KGVKKKLFAEDSS [R5K]`, “normalised enrichment score” read 4.85.
`KGVLRKLFAEDSS [K4L]` — result for “normalised enrichment score”: 2.84.
`KWVKRKLFAEDSS [G2W]` — result for “normalised enrichment score”: 6.79.
`KGVKRKLFPEDSS [A9P]` — result for “normalised enrichment score”: 7.26.
`KGNKRKLFAEDSS [V3N]`: “normalised enrichment score” 0.361.
`KGQKRKLFAEDSS [V3Q]`: “normalised enrichment score” 0.537.
Under “normalised enrichment score”, `KGVKRKLDAEDSS [F8D]` is recorded as 0.225.
For `KGVKRKLFAPDSS [E10P]`, “normalised enrichment score” read 7.22.
Under “normalised enrichment score”, `KGVKRKLFAEDLS [S12L]` is recorded as 7.61.
`KGVKRKLFAEDMS [S12M]`: “normalised enrichment score” 7.22.
`KTVKRKLFAEDSS [G2T]` — result for “normalised enrichment score”: 7.48.
For `KRVKRKLFAEDSS [G2R]`, “normalised enrichment score” read 6.81.
Under “normalised enrichment score”, `KGVKRKLFAEKSS [D11K]` is recorded as 6.81.

Sample 2
Target: UBE2D3 UBC core domain (UniProt P61077)
Technique: yeast two-hybrid
Matrix: yeast
Setting: mostly zero background
Baseline: not given
Reading: higher = stronger interaction
B1: RC3H2 RING domain (UniProt Q9HBD1); chain QAAQWTEFLSCPICYNEFDENVHKPISLGCSHTVCKTCLNKLHRKACPFDQTAINTDIDVL
B2: TRIM72 RING domain (UniProt Q6ZMU5); chain APGLLHQELSCPLCLQLFDAPVTAECGHSFCRACLGRVAGEPAADGTVLCPCCQAPTRPQALST
B3: TRIM8 RING domain (UniProt Q9BZR9); chain WKNCFEEELICPICLHVFVEPVQLPCKHNFCRGCIGEAWAKDSGLVRCPECNQAYNQKPGLE
B4: IRF2BPL RING domain (UniProt Q9H1B7); chain SPMANSGPLCCTICHERLEDTHFVQCPSVPSHKFCFPCSRESIKAQGATGEVYCPSGEKCPLVGSNVP
B5: ARK2C RING domain (UniProt Q6ZSG1); chain EGEESDTDEKCTICLSMLEDGEDVRRLPCMHLFHQLCVDQWLAMSKKCPICRVDIETQLGAD
B6: MID1 RING domain (UniProt O15344); chain METLESELTCPICLELFEDPLLLPCAHSLCFNCAHRILVSHCATNESVESITAFQCPTCRHVITLSQRGL
B7: TRIM69 RING domain (UniProt Q86WT6); chain VIQDITMELHCPLCNDWFRDPLMLSCGHNFCEACIQDFWRLQAKETFCPECKMLCQYNNCTF
B8: UHRF2 RING domain (UniProt Q96PU4); chain CGGDPEKKCHSCSCRVCGGKHEPNMQLLCDECNVAYHIYCLNPPLDKVPEEEYWYCPSCKTDSSEVVKAGER
B9: PHF21A RING domain (UniProt Q96BD5); chain SPTSTDGDIHEDFCSVCRKSGQLLMCDTCSRVYHLDCLDPPLKTIPKGMWICPRCQDQMLKKEEAIPW
Target sequence (chain): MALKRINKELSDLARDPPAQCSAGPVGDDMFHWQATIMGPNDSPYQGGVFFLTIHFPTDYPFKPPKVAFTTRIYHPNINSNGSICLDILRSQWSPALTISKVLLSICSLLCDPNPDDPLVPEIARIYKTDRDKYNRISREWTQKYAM
`QHHELTSLFECPVCFDYVLPPILQCQAGHLVCNQCRQKLSCCPTCRGALTPSIRNL (SIAH2 RING domain (UniProt O43255))`: “lacZ reporter activity” 0.
`B1 (RC3H2 RING domain)`: “lacZ reporter activity” 0.
Under “lacZ reporter activity”, `RLTMMWEEVTCPICLDPFVEPVSIECGHSFCQECISQVGKGGGSVCPVCRQRFLLKNLRP (TRIM21 RING domain (UniProt P19474))` is recorded as 0.
For `B2 (TRIM72 RING domain)`, “lacZ reporter activity” read 0.
`QLRRLQEERTCKVCMDKEVSVVFIPCGHLVVCQECAPSLRKCPICRGIIKGTVRTF (BIRC2 RING domain (UniProt Q13490))`: “lacZ reporter activity” 0.
For `B3 (TRIM8 RING domain)`, “lacZ reporter activity” read 0.
`B4 (IRF2BPL RING domain)`: “lacZ reporter activity” 0.
Under “lacZ reporter activity”, `B5 (ARK2C RING domain)` is recorded as 14500.
`B6 (MID1 RING domain)`: “lacZ reporter activity” 0.
`B7 (TRIM69 RING domain)` — result for “lacZ reporter activity”: 0.
`PEELQAMDNVCIICREEMVTGAKRLPCNHIFHTSCLRSWFQRQQTCPTCRMDVLRASLPA (SYVN1 RING domain (UniProt Q86TM6))`: “lacZ reporter activity” 0.
`VTLSLTLPITCHICLGKVRQPVICINNHVFCSICIDLWLKNNSQCPACRVPITPENPCK (OBI1 RING domain (UniProt Q5W0B1))`: “lacZ reporter activity” 0.
Under “lacZ reporter activity”, `B8 (UHRF2 RING domain)` is recorded as 0.
Under “lacZ reporter activity”, `B9 (PHF21A RING domain)` is recorded as 0.
`YWAMDSTFELCKICAESNKDVKIEPCGHLLCSCCLAAWQHSDSQTCPFCRCEIKGWEAVS (CBLC RING domain (UniProt Q9ULV8))` — result for “lacZ reporter activity”: 0.

Sample 3
Target: Histone acetyltransferase KAT6A, both winged helices, GST fusion (KAT6A, Homo sapiens, UniProt Q92794, residues 1-181)
Technique: protein binding microarray
Form: double-stranded DNA, one strand shown
Matrix: in vitro
Concentration: not given
Setting: 8-mer, flanks averaged, mean of 2 arrays, mostly near background
Baseline: not given
Reading: higher = stronger binding
Target sequence (chain): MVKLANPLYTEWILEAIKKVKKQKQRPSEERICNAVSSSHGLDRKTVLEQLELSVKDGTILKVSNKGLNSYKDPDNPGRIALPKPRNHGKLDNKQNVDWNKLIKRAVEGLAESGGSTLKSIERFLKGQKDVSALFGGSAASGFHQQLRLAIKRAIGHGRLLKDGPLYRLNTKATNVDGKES
With `AAAGGTCC` the E-score was -0.0142.
For `TAAGGTAA`, the E-score was -0.091.
`CAGATGCG` has an E-score of 0.0541.
The E-score of `AGGTCCGA` is reported as -0.0293.
With `CCATGCAA` the E-score was -0.0751.
For `CGGACGAG`, the E-score was 0.0697.
With `CTACGCAG` the E-score was 0.00221.
The E-score of `CTCTTACC` is reported as 0.0196.

Sample 4
Target: HLA class I histocompatibility antigen, A alpha chain, allele A*80:01 (Homo sapiens, UniProt P04439)
Read-out: peptide-MHC binding
Form: peptide
Concentration: concentration not given
`RVPTVFHKK`: binding “inactive”.
Under binding, `KQGDVFYTA` is recorded as “inactive”.
For `CLSPVVAGL`, binding read “inactive”.
`TSACGIFLK` — result for binding: “inactive”.
For `SVHYKFVTK`, binding read “inactive”.
`MFKNFPFFK`: binding “inactive”.
For `LFPELECFF`, binding read “inactive”.
For `GVNDTEAHA`, binding read “inactive”.
For `KSAFYQSYL`, binding read “inactive”.
Under binding, `WQQWDRQSL` is recorded as “inactive”.
Under binding, `FGAQMGWPV` is recorded as “inactive”.

Repeated from above (sample 4):
`TSACGIFLK` — result for binding: “inactive”.
Under binding, `KQGDVFYTA` is recorded as “inactive”.
Under binding, `FGAQMGWPV` is recorded as “inactive”.
For `CLSPVVAGL`, binding read “inactive”.
For `KSAFYQSYL`, binding read “inactive”.
For `LFPELECFF`, binding read “inactive”.
`MFKNFPFFK`: binding “inactive”.
Under binding, `WQQWDRQSL` is recorded as “inactive”.
